Measurements from different studies.
± gives the spread as reported.
HSP90AA1: Heat shock protein HSP 90-alpha (HSP90AA1, Homo sapiens, UniProt P07900)
HSP90AA1 C-terminal domain: Heat shock protein HSP 90-alpha, C-terminal domain (HSP90AA1, Homo sapiens, UniProt P07900)

`COC(=O)c1c(O)cc(O)c(Cl)c1CCc1cccc(Cc2ccccc2)c1` has a Kd of > 100 µM (HSP90AA1; ligand displacement, FP).
`N=C(N)NCCC[C@H](NC(=O)CNC(=O)[C@H](CCCNC(=N)N)NC(=O)CNC(=O)[C@H](CCCNC(=N)N)NC(=O)CNC(=O)[C@H](CCCNC(=N)N)NC(=O)CNC(=O)[C@H](CCCNC(=N)N)NC(=O)CNC(=O)[C@H](CCCNC(=N)N)NC(=O)CNC(=O)[C@H](CCCNC(=N)N)NC(=O)CNC(=O)[C@H](CCCNC(=N)N)NC(=O)CNC(=O)[C@H](CCCNC(=N)N)NC(=O)CNC(=O)[C@H](CCCNC(=N)N)NC(=O)CNC(=O)[C@H](CCCNC(=N)N)NC(=O)CNC(=O)[C@H](CCCNC(=N)N)NC(=O)CNC(=O)[C@H](CCCNC(=N)N)NC(=O)CNC(=O)[C@H](CCCNC(=N)N)NC(=O)CNC(=O)[C@H](CCCNC(=N)N)NC(=O)CNC(=O)[C@H](CCCNC(=N)N)NC(=O)CNC(=O)[C@H](CCCNC(=N)N)NC(=O)CNC(=O)[C@H](CCCNC(=N)N)NC(=O)CNC(=O)[C@H](CCCNC(=N)N)NC(=O)CNC(=O)[C@H](CCCNC(=N)N)NC(=O)CN)C(=O)O` gave a Kd of 0.00897 µM (HSP90AA1; binding, BLI; pH 7.5).
For `CC(C)c1cc(-n2nnc(C(=O)Nc3c(F)ccc(NS(=O)(=O)N(C)C)c3F)c2-c2ccncc2)c(O)cc1O`, the IC50 was 0.008 µM (HSP90AA1; ligand displacement, FP).
With `COC(=O)c1c(O)cc(O)c(Cl)c1CCc1ccccc1Cc1ccccc1OC` the Kd was > 100 µM (HSP90AA1; ligand displacement, FP).
For `CCC(C)n1c(C(=O)Nc2cnc(C(=O)NC)n(CC(C)C)c2=O)ncc(NC(=O)c2ncc(NC(=O)c3ccccc3)c(=O)n2CCc2ccc(OCc3ccccc3)cc2)c1=O` (centres unmarked), the Kd was 11.7 ± 1 µM (HSP90AA1 C-terminal domain; binding, microscale thermophoresis; C-terminal domain).
With `Cc1cc(C)c(S(=O)(=O)N(CC(=O)O)c2ccc(Nc3ccnc(N4CCCC4)n3)cc2)c(C)c1` the Kd was > 100 µM (HSP90AA1 (Homo sapiens, UniProt P07900, E47A); binding, biolayer interferometry; mutant E47A).
`CCOc1ccccc1Cc1ccccc1CCc1c(Cl)c(O)cc(O)c1C(=O)OC` gave a Kd of > 100 µM (HSP90AA1; ligand displacement, FP).
`O=C1c2ccc(O)cc2-c2c(-c3ccc(O)cc3)oc3cc(O)cc1c23` gave a Kd of 0.31 µM (HSP90AA1; binding, FP).
`COc1cc(S(=O)(=O)Nc2ccc(Nc3ccnc(N4CCCC4)n3)cc2)c(C)cc1C` gave an IC50 of > 100 µM (HSP90AA1; ATPase activity, inhibitor).
The Kd of `Brc1ccc(Nc2nc(NN=Cc3c[nH]c4ccccc34)nc(N3CCOCC3)n2)cc1` is reported as 0.219 µM (HSP90AA1; binding, SPR).
For `CCC(C)n1c(C(=O)Nc2cnc(C(=O)NC)n(CC(C)C)c2=O)ncc(NC(=O)c2ncc(NC(=O)c3ccccc3)c(=O)n2Cc2ccc(O)cc2)c1=O` (centres unmarked), the Kd was 286 µM (HSP90AA1 C-terminal domain; binding, microscale thermophoresis; C-terminal domain).
